# Measurements of several laboratories.
# “And” joins repeats or separate records; there may be more than shown. ± marks the error that the study gave.
# Fibroin-modulator-binding protein-1: Fibroin-modulator-binding protein-1 99-193 (Bombyx mori, UniProt Q5FBS0)
Molecule,target or system,assay,system,conditions,scale,quantity,result
GSGAGKESYV,human MAGI1-3/6 PDZ construct (MBP fusion),automated holdup,"peptide, crude extract","concentration not given, corrected by standard peak, unit not given","baseline: biotin control resin, higher = stronger binding",binding intensity,0.743
ALTQWVTEN,Jurkat T cells expressing 1G4 TCR,"NFAT-eGFP reporter, fluorescence microscopy",peptide,"concentration not given, HLA-A*02:01 NY-ESO system",,reporter activation,0.0158%
GGGAGAACUUCGACCAGAAGUCUAGACACUACGCGAAAAGAACCCACGCCUGUGUCUACGUAUGUGCGCAUACAUGGAUCCUC (ssRNA; 2'-fluoro pyrimidines),integrin alphaV/beta3 31-992/27-718 (Homo sapiens),SPR,RNA,together with: MnCl2 1 mM,higher = more binding,relative binding,65.4 RU
human alpha-enolase,,co-immunoprecipitation,human RBC cytosol,"DSSO crosslinker, unit not given, together with: Band 3 peptide 1-56 bait",baseline: negative control,co-IP enrichment,210
GSGAGSETSV,human SCRIB PDZ3-4 tandem (MBP fusion),automated holdup,"peptide, purified PDZ protein","concentration not given, unit not given","baseline: biotin control resin, higher = stronger binding",binding intensity,0.747
GLAQWVPLV,Jurkat T cells expressing 1G4 TCR,"NFAT-eGFP reporter, fluorescence microscopy",peptide,"concentration not given, HLA-A*02:01 NY-ESO system",,reporter activation,0.00834%
cotadutide,,"metabolomics, measured: hepatic glutamine","ob/ob mice on AMLN diet, NASH model, liver",dose not given,,metabolite level,0.83 ± 0.04 scaled intensity
epoetin alfa,UT7/EPO,"RT-qPCR, measured: KLF6",,"concentration not given, 90 min, normalized to HPRT1",baseline: vehicle,mRNA level,4.6 fold
TASPAKETSF,human SCRIB PDZ3-4 tandem (MBP fusion),automated holdup,"peptide, purified PDZ protein","concentration not given, unit not given","baseline: biotin control resin, higher = stronger binding",binding intensity,0.789
GLAQWIAGA,Jurkat T cells expressing 1G4 TCR,"NFAT-eGFP reporter, flow cytometry",peptide,"concentration not given, HLA-A*02:01 NY-ESO system",,reporter activation,0.19%
CAAACAAACAAA (dsDNA),Fibroin-modulator-binding protein-1,ITC,"double-stranded DNA, one strand shown",,,Kd,4.61 ± 0.463 µM
ALQQWVTQV,Jurkat T cells expressing 1G4 TCR,"NFAT-eGFP reporter, fluorescence microscopy",peptide,"concentration not given, HLA-A*02:01 NY-ESO system",,reporter activation,25.9%
TCAATCAATCAA (dsDNA),Fibroin-modulator-binding protein-1,ITC,"double-stranded DNA, one strand shown",,,Kd,1.42 ± 0.109 µM
human complement C3,,co-immunoprecipitation,human plasma,"no crosslinker, unit not given, together with: Band 3 peptide 1-56 bait",baseline: negative control,co-IP enrichment,0
MTVCNASQRQAHAQATAVSL,Huh-7 liver cancer,phage binding output/input,peptide,,baseline: control phage,selectivity ratio,250 ± 72
tripeptidyl peptidase 2,,co-immunoprecipitation,human RBC cytosol,"DSSO crosslinker, unit not given, together with: Band 3 peptide 1-56 bait",baseline: negative control,co-IP enrichment,919
GGGAGAACUUCGACCAGAAGUCACACCCUCUAACGCACAUUACGCUAAACCCUCUCAGCCUAUGUGCGCAUACAUGGAUCCUC (ssRNA; 2'-fluoro pyrimidines),integrin alphaV/beta3 31-992/27-718 (Homo sapiens),SPR,RNA,together with: MnCl2 1 mM,higher = more binding,relative binding,73.5 RU
milbemycin oxime,Saccharomyces cerevisiae,cell growth,"Pdr5 deleted, Cdr1 overexpressed","2^-3.966 µg/mL, together with: fluconazole 10 µg/mL",,OD600,0.029 and 0.037
Peginesatide,UT7/EPO,"tyrosine phosphorylation, LC-MS/MS phosphoproteomics, GluC, measured: GAB1 tyrosine 183",,"10 nM, 15 min, together with: 10 U/mL EPO",baseline: vehicle,phosphorylation level,18.6 fold
human LDL receptor,,co-immunoprecipitation,human RBC membrane,"DSSO crosslinker, unit not given, together with: Band 3 peptide 1-56 bait",baseline: negative control,co-IP enrichment,0
GSGAGKETSF,human MAGI1-2/6 PDZ construct (MBP fusion),automated holdup,"peptide, crude extract","concentration not given, corrected by standard peak, unit not given","baseline: biotin control resin, higher = stronger binding",binding intensity,0.0611
QLMPFGSLL,"HLA class I histocompatibility antigen, A alpha chain, allele A*02:01 (Homo sapiens, UniProt P04439)","complex stability, off-rate",peptide,37 °C,,half-life of peptide-HLA complex,85.7 h
VLAQWIPRL,Jurkat T cells expressing 1G4 TCR,"NFAT-eGFP reporter, fluorescence microscopy",peptide,"concentration not given, HLA-A*02:01 NY-ESO system",,reporter activation,0.0106%
colistin,Pseudomonas aeruginosa,broth microdilution,clinical isolate RKI-No_482/15,,,MIC,1 µg/mL
human desmoplakin,,co-immunoprecipitation,human RBC membrane,"DMTMM crosslinker, unit not given, together with: Band 3 peptide 1-56 bait",baseline: negative control,co-IP enrichment,0
GSGAGHETIV,human SCRIB PDZ3-4 tandem (MBP fusion),automated holdup,"peptide, crude extract","concentration not given, uncorrected, unit not given","baseline: biotin control resin, higher = stronger binding",binding intensity,0.457
IMQLMPFGC,"HLA class I histocompatibility antigen, A alpha chain, allele A*24:02 (Homo sapiens, UniProt P04439)",conformational ELISA,peptide,concentration not given,"baseline: positive control peptide, direction not given",binding score,7.6%
CLLEWITHV,Jurkat T cells expressing 1G4 TCR,"NFAT-eGFP reporter, flow cytometry",peptide,"concentration not given, HLA-A*02:01 NY-ESO system",,reporter activation,0.23%
hemoglobin beta,,co-immunoprecipitation,human RBC membrane,"DMTMM crosslinker, unit not given, together with: Band 3 peptide 1-56 bait",baseline: negative control,co-IP enrichment,365
ALLEWVSQV,Jurkat T cells expressing 1G4 TCR,"NFAT-eGFP reporter, fluorescence microscopy",peptide,"concentration not given, HLA-A*02:01 NY-ESO system",,reporter activation,0.00778%
KDECVIATEV,human MAGI1-3/6 PDZ construct (MBP fusion),automated holdup,"peptide, crude extract","concentration not given, uncorrected, unit not given","baseline: biotin control resin, higher = stronger binding",binding intensity,-0.0502
SEC11A,,co-immunoprecipitation,human RBC membrane,"unit not given, together with: Band 3 peptide 1-56 bait",baseline: negative control,co-IP enrichment,1.56
QDEKVKESYV,human MAGI1-2/6 PDZ construct (MBP fusion),surface plasmon resonance,peptide,concentration not given,higher = stronger binding,normalised SPR binding response,16.2 normalised RU
GLGQWLALA,Jurkat T cells expressing 1G4 TCR,"NFAT-eGFP reporter, fluorescence microscopy",peptide,"concentration not given, HLA-A*02:01 NY-ESO system",,reporter activation,0.0176%
GSGAGRETEV,human MAGI1-3/6 PDZ construct (MBP fusion),surface plasmon resonance,peptide,concentration not given,higher = stronger binding,normalised SPR binding response,13.7 normalised RU
USP14,,co-immunoprecipitation,human RBC cytosol,"DSSO crosslinker, unit not given, together with: Band 3 peptide 1-56 bait",baseline: negative control,co-IP enrichment,6540
Polymyxin B,Staphylococcus aureus,DiSC3(5) fluorescence,,"concentration not given, 57 min",higher = more depolarisation,membrane depolarisation,711 a.u. and 576 a.u. and 519 a.u.

# Excerpt of the above:
Molecule,target or system,assay,system,conditions,scale,quantity,result
human alpha-enolase,,co-immunoprecipitation,human RBC cytosol,"DSSO crosslinker, unit not given, together with: Band 3 peptide 1-56 bait",baseline: negative control,co-IP enrichment,210
GSGAGSETSV,human SCRIB PDZ3-4 tandem (MBP fusion),automated holdup,"peptide, purified PDZ protein","concentration not given, unit not given","baseline: biotin control resin, higher = stronger binding",binding intensity,0.747
GLAQWVPLV,Jurkat T cells expressing 1G4 TCR,"NFAT-eGFP reporter, fluorescence microscopy",peptide,"concentration not given, HLA-A*02:01 NY-ESO system",,reporter activation,0.00834%
cotadutide,,"metabolomics, measured: hepatic glutamine","ob/ob mice on AMLN diet, NASH model, liver",dose not given,,metabolite level,0.83 ± 0.04 scaled intensity
